Measurements pooled from the literature.
Every numbered part comes from another study and shows a few of its results, in no order. Positions count from the first letter of the parent shown.

Sample 1 — target: CCND1, cyclin fold, Cln2 fusion (human); method: yeast growth competition, sequencing; sample: yeast; notes: strong parent motif; relative to: not given; reading: higher = stronger binding
Starting sequence: CDKN1A docking peptide (human); SKACRRLFGPVDS
| Substitution | normalised enrichment score |
| --- | --- |
| A3M | 0.568 |
| D12G | 1.76 |
| R6G | 0.213 |
| C4S | 0.865 |
| D12F | 1.23 |
| P10T | 1.99 |
| C4N | 0.497 |
| L7P | -0.123 |
| R6N | 1.54 |
| P10A | 2.03 |
| G9Q | 2.97 |
| L7C | 0.218 |
| F8V | 0.214 |
| D12Q | 1.61 |
| V11F | 2.99 |
| V11H | 2.81 |
| R5M | 0.547 |
| F8K | -0.0401 |
| R6Y | 0.816 |
| G9W | 2.88 |
| P10E | 3.91 |
| G9D | 3.75 |
| C4R | 1.05 |

Sample 2 — method: DHFR PCA, deep sequencing; sample: yeast; with: (+)-ABA 2500 µM; relative to: wild-type fitted maximum; reading: higher = stronger binding
Target: ABI1, truncated, D143A, DHFR fusion (Arabidopsis thaliana)
Notes: methotrexate growth selection, single substitutions
Starting sequence: PYL1, truncated, DHFR fusion (Arabidopsis thaliana); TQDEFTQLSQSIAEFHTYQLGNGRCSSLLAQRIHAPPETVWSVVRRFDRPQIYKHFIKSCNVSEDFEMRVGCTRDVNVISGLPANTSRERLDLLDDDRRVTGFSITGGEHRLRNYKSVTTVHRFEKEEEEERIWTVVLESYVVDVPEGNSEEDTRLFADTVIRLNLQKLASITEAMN
| Substitution | relative binding score [%] |
| --- | --- |
| G148I | 81 |
| V143Y | 69.1 |
| I33E | -31.6 |
| D144N | 92.3 |
| T17L | 88.9 |
| L156G | 94.7 |
| V70G | 84.9 |
| E128P | 108 |
| S150M | 86.3 |
| T73L | 97.8 |
| A170C | 95.9 |
| V40Q | -18.9 |
| L166G | 36.3 |
| G71Y | 72 |
| G148A | 91.3 |
| V136L | 96.7 |
| D75C | 94.8 |
| G71D | 84.5 |
| Y53V | 73.3 |
| E127Y | 99.8 |
| N22T | 101 |
| G23K | 98.8 |
| L138Q | 85.6 |
| L138N | 63.8 |
| G23I | 89.6 |

Sample 3 — method: protein-binding microarray; form: double-stranded DNA, one strand shown; sample: in vitro; concentration: 250 nM; notes: 60-bp whole probe; with: salmon DNA 0.4 mg/ml; relative to: random background probes; reading: higher = stronger binding; constant ends, left off below: GCCTAGCAC … GTCTTGATTCGCTTGACGCTGCTG
Target: Interferon regulatory factor 7, full length, phosphomimetic (IRF7, Homo sapiens, UniProt Q92985, residues 1-503, S101K/S471D/S472D/S475D/S476D/S477D/S483D/S484D/S487D)
| Strand | log fluorescence [z-score] |
| --- | --- |
| TGGTTTTTACTTTCTGAATGGTGCTAG | 2.61 |
| TCACCTTTACTTTCTTTACTGTGCTAG | 0.949 |
| TCAGCTTTCCTTCTTGAACTGTGCTAG | 0.707 |
| GACGGACTTGACTATCGGGACGTGCTA | -0.5 |
| TCCAATTGTCCTTTCACTTTGTGCTAG | 0.659 |
| TCCAGTCTGGGAGATGAAGCGGTGCTA | -0.881 |
| TTAGATATCAGCTTCGATTAGTGCTAG | 0.169 |
| TCAGGTATCGGACTGGGTTAGTGCTAG | 0.31 |
| TTACGTATCGACTTTCGGTTAGTGCTA | 1.96 |
| TTAGAACTGGGGTCTCGATTAGTGCTA | 0.317 |
| GTGTGTGTCTGATTATTTACGTGCTAG | -0.133 |
| GACGATTACAGTATCGAGACGTGCTAG | -0.0375 |
| GATGGTCTCCTTCTCCTGACGTGCTAG | -0.0296 |
| GACGGACTGAGGTATCGGGACGTGCTA | -0.4 |
| TTAGGACTGGGTACTGGGTTAGTGCTA | -0.235 |
| GACGGACTGCTGCTCCTGACGTGCTAG | -0.878 |
| TACGATTTCAGTATCGAGACGTGCTAG | 0.473 |
| TTAGGACTGATTATCCTTTAGTGCTAG | -0.0579 |
| TTAGGAATGCTTATCCTTTAGTGCTAG | -0.00644 |
| TTAGGTTGCCTTTCCCTTTAGTGCTAG | 0.515 |
| AGTGTTTGCCCTATTTAAGAGTGCTAG | 1.15 |
| TTAGAACTGAGTATCGATGAGTGCTAG | -0.167 |
| GACGGTATCGACAGTGGGGACGTGCTA | -0.428 |
| GACGGTTTCGGTTCCGGGTCGTGCTAG | 12.8 |
| GGCACCCAAGCTCTTGTTTGGTGCTAG | -0.957 |

Sample 4 — target: JUN, bZIP domain (human); method: DHFR protein complementation; sample: yeast; relative to: wild-type JUN-FOS pair; reading: higher = stronger binding
Notes: single substitutions, most at no-binding floor
Starting sequence: JUN, bZIP domain (human); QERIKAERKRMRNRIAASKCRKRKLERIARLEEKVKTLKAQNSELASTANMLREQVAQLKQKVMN
| Substitution | binding fitness |
| --- | --- |
| L52T | -1.33 natural log |
| L52G | -1.34 natural log |
| L31H | -1.45 natural log |
| A49D | -1.26 natural log |
| L31R | -1.35 natural log |
| Q41F | -1.26 natural log |
| V35N | -1.45 natural log |
| L45C | -1.25 natural log |
| L45G | -1.34 natural log |
| V35Q | -1.26 natural log |
| L38V | -1.35 natural log |
| V35H | -1.22 natural log |
| L31G | -1.32 natural log |

Sample 5 — target: UBE2E2 UBC core domain (UniProt Q96LR5); method: yeast two-hybrid; sample: yeast; notes: mostly zero background; relative to: not given; reading: higher = stronger interaction
B1: Ltn1 RING domain (UniProt Q6A009); chain VDKRFEGVEDCMICFSVIHGFNYSLPKKACRTCKKKFHSACLYKWFTSSNKSTCPLCRETFF
B2: PRKN RING domain (UniProt O60260); chain LIATNSRNITCITCTDVRSPVLVFQCNSRHVICLDCFHLYCVTRLNDRQFVHDPQLGYSLPCVAGCPNSLIKELHH
B3: TRIM48 RING domain (UniProt Q8IWZ4); chain ISQVFQRELTCPICMNYFIDPVTIDCGHSFCRPCFYLNWQDIPILTQCFECIKTIQQRNLKT
B4: ZNRF3 RING domain (UniProt Q9ULT6); chain DTLSSSSTSDCAICLEKYIDGEELRVIPCTHRFHRKCVDPWLLQHHTCPHCRHNIIEQKGNP
B5: DTX1 RING domain (UniProt Q86Y01); chain QKVKNPPDEDCTICMERLVTASGYEGVLRHKGVRPELVGRLGRCGHMYHLLCLVAMYSNGNKDGSLQCPTCKAIYGEKTGTQ
B6: RNF24 RING domain (UniProt Q9Y225); chain KVKELNLHELCAVCLEDFKPRDELGICPCKHAFHRKCLIKWLEVRKVCPLCNMPVLQLAQLH
B7: TRIM22 RING domain (UniProt Q8IYM9); chain KEVKMSPQEGQKRDVCEHHGKKLQIFCKEDGKVICWVCELSQEHQGHQTFRINEVVKECQEK
B8: RNF135 RING domain (UniProt Q8IUD6); chain PVWLAEDDLGCIICQGLLDWPATLPCGHSFCRHCLEALWGARDARRWACPTCRQGAAQQPHLR
| Sequence | lacZ reporter activity |
| --- | --- |
| KITELNPHLMCVLCGGYFIDATTIIECLHSFCKTCIVRYLETSKYCPICDVQVHKTRPLL (BMI1 RING domain (UniProt P35226)) | 0 |
| ALDRLEKLLRCSRCTNILREPVCLGGCEHIFCSNCVSDCIGTGCPVCYTPAWIQDLKI (BARD1 RING domain (UniProt Q99728)) | 0 |
| B1 (Ltn1 RING domain) | 0 |
| MDDQGCPRCKTTKYRNPSLKLMVNVCGHTLCESCVDLLFVRGAGNCPECGTPLRKSNFRV (MNAT1 RING domain (UniProt P51948)) | 0 |
| NTAPSLTVPECAICLQTCVHPVSLPCKHVFCYLCVKGASWLGKRCALCRQEIPEDFLDK (RNF146 RING domain (UniProt Q9NTX7)) | 0 |
| B2 (PRKN RING domain) | 0 |
| B3 (TRIM48 RING domain) | 0 |
| B4 (ZNRF3 RING domain) | 0 |
| B5 (DTX1 RING domain) | 0 |
| KLWDINAHITCRLCSGYLIDATTVTECLHTFCRSCLVKYLEENNTCPTCRIVIHQSHPLQ (PCGF3 RING domain (UniProt Q3KNV8)) | 0 |
| QLRRLQEERTCKVCLDRAVSIVFVPCGHLVCAECAPGLQLCPICRAPVRSRVRTF (BIRC7 RING domain (UniProt Q96CA5)) | 0 |
| B6 (RNF24 RING domain) | 0 |
| B7 (TRIM22 RING domain) | 0 |
| B8 (RNF135 RING domain) | 0 |

Repeated from above (sample 3):
| Strand | log fluorescence [z-score] |
| --- | --- |
| TTAGGACTGATTATCCTTTAGTGCTAG | -0.0579 |
| TTAGGAATGCTTATCCTTTAGTGCTAG | -0.00644 |
| TTAGGTTGCCTTTCCCTTTAGTGCTAG | 0.515 |
| AGTGTTTGCCCTATTTAAGAGTGCTAG | 1.15 |
| TTAGAACTGAGTATCGATGAGTGCTAG | -0.167 |
| GACGGTATCGACAGTGGGGACGTGCTA | -0.428 |
| GACGGTTTCGGTTCCGGGTCGTGCTAG | 12.8 |
